# Measurements from different studies.
# Compare with care: the assays were run in different laboratories. ± gives the spread as reported.
# Cell line: human erythrocytes
SMILES,conditions,scale,measurement,value
CC(C)C[C@H](NC(=O)[C@H](CCN)NC(=O)[C@H](CCN)NC(=O)[C@H](CC(C)C)NC(=O)[C@H](Cc1c[nH]c2ccccc12)NC(=O)[C@H](CCN)NC(=O)[C@@H](N)CC(C)C)C(N)=O,"up to 100 µM, 4 h, 37 °C",baseline: Triton X-100,hemolysis,< 10%
CCCCCCCCCCCC(=O)NCC(=O)N[C@@H](CC(C)C)C(=O)N[C@@H](CC(C)C)C(=O)N[C@@H](CCCCN)C(=O)N[C@@H](CCCNC(=N)N)C(=O)N[C@H](C(=O)N[C@@H](CCCCN)C(=O)N[C@H](C(=O)N[C@@H](CC(C)C)C(=O)N[C@@H](CC(C)C)C(=O)NCCCC[C@H](NC(=O)[C@H](CC(C)C)NC(=O)[C@H](CC(C)C)NC(=O)[C@@H](NC(=O)[C@H](CCCCN)NC(=O)[C@@H](NC(=O)[C@H](CCCNC(=N)N)NC(=O)[C@H](CCCCN)NC(=O)[C@H](CC(C)C)NC(=O)[C@H](CC(C)C)NC(=O)CNC(=O)CCCCCCCCCCC)[C@@H](C)CC)[C@@H](C)O)C(=O)NCCCC[C@H](NC(=O)[C@H](CCCCNC(=O)[C@H](CC(C)C)NC(=O)[C@H](CC(C)C)NC(=O)[C@@H](NC(=O)[C@H](CCCCN)NC(=O)[C@@H](NC(=O)[C@H](CCCNC(=N)N)NC(=O)[C@H](CCCCN)NC(=O)[C@H](CC(C)C)NC(=O)[C@H](CC(C)C)NC(=O)CNC(=O)CCCCCCCCCCC)[C@@H](C)CC)[C@@H](C)O)NC(=O)[C@H](CC(C)C)NC(=O)[C@H](CC(C)C)NC(=O)[C@@H](NC(=O)[C@H](CCCCN)NC(=O)[C@@H](NC(=O)[C@H](CCCNC(=N)N)NC(=O)[C@H](CCCCN)NC(=O)[C@H](CC(C)C)NC(=O)[C@H](CC(C)C)NC(=O)CNC(=O)CCCCCCCCCCC)[C@@H](C)CC)[C@@H](C)O)C(N)=O)[C@@H](C)O)[C@@H](C)CC,"1 h, 37 °C, 10% haemolysis",,minimum haemolytic concentration,211 µM
CC[C@H](C)[C@H](NC(=O)[C@H](Cc1c[nH]c2ccccc12)NC(=O)[C@H](CCCCN)NC(=O)[C@H](CC(C)C)NC(=O)[C@@H](NC(=O)[C@@H](NC(=O)CNC(=O)[C@H](CCCCN)NC(=O)[C@H](Cc1c[nH]cn1)NC(=O)[C@H](CCCCN)NC(=O)[C@H](Cc1c[nH]c2ccccc12)NC(=O)[C@H](C)NC(=O)[C@H](CC(C)C)NC(=O)[C@H](CO)NC(=O)[C@@H](NC(=O)[C@H](Cc1ccc(O)cc1)NC(=O)[C@H](CCCCN)NC(=O)[C@H](CCC(N)=O)NC(=O)CNC(=O)[C@H](CCCCN)NC(=O)[C@@H](NC(=O)[C@H](C)NC(=O)[C@H](CC(C)C)NC(=O)[C@H](Cc1ccccc1)NC(=O)[C@H](CCC(N)=O)NC(=O)[C@@H](NC(=O)[C@H](CC(C)C)NC(=O)[C@H](CCCCN)NC(=O)[C@H](CCSC)NC(=O)[C@H](Cc1ccccc1)NC(=O)[C@H](C)NC(=O)[C@H](C)NC(=O)[C@H](CCSC)NC=O)[C@@H](C)CC)[C@@H](C)O)C(C)C)[C@@H](C)O)[C@@H](C)CC)C(=O)N[C@@H](CC(N)=O)C(=O)N[C@@H](C)C(=O)NCC(=O)N[C@@H](CCC(N)=O)C(=O)N[C@@H](CO)C(=O)N[C@@H](Cc1ccccc1)C(=O)N[C@@H](CCC(=O)O)C(=O)N[C@@H](Cc1c[nH]c2ccccc12)C(=O)N[C@H](C(=O)N[C@@H](Cc1ccc(O)cc1)C(=O)N[C@@H](CCCCN)C(=O)N[C@@H](CCC(N)=O)C(=O)N[C@H](C(=O)N[C@@H](CCCCN)C(=O)N[C@@H](CCCCN)C(=O)N[C@@H](CC(C)C)C(=O)N[C@@H](Cc1c[nH]c2ccccc12)C(=O)N[C@@H](C)C(=O)O)[C@@H](C)CC)[C@@H](C)CC,concentration not given,baseline: MIC against Gram-positive bacteria,non-haemolytic concentration,> 100 x MIC
CC[C@@H](CC(=O)N[C@@H](CCCNC(=N)N)CC(=O)N[C@H](CC(=O)N[C@@H](CC)CC(=O)N[C@@H](CCCNC(=N)N)CC(=O)N[C@H](CC(=O)N[C@@H](CC)CC(=O)N[C@@H](CCCNC(=N)N)CC(N)=O)[C@@H](C)CC)[C@@H](C)CC)NC(=O)C[C@@H](NC(=O)C[C@@H](N)Cc1ccc(O)cc1)[C@@H](C)CC,"antifungal MIC, 1 h, 37 °C",baseline: melittin,haemolysis,7.2 ± 3.4%
CN[C@H](CC(C)C)C(=O)N[C@H]1C(=O)N[C@@H](CC(N)=O)C(=O)N[C@H]2C(=O)N[C@H]3C(=O)N[C@H](C(=O)N[C@H](C(=O)O)c4cc(O)cc(O)c4-c4cc3ccc4O)[C@H](O)c3ccc(c(Cl)c3)Oc3cc2cc(c3O[C@@H]2O[C@H](CO)[C@@H](O)[C@H](O)[C@H]2O[C@H]2C[C@](C)(NCc3ccc(C(=O)OCCCCCCN(Cc4ccccn4)Cc4ccccn4)cc3)[C@H](O)[C@H](C)O2)Oc2ccc(cc2Cl)[C@H]1O,"1 h, pH 7.4, 5% suspension",,HC50,> 500 µM
CC[C@H](C)[C@H](NC(=O)[C@H](CCCNC(=N)N)NC(=O)[C@H](CCCCN)NC(=O)[C@H](CC(C)C)NC(=O)[C@H](CC(C)C)NC(=O)CN)C(=O)N[C@@H](CCCCN)C(=O)N[C@H](C(=O)N[C@@H](CC(C)C)C(=O)N[C@@H](CC(C)C)C(=O)NCCCC[C@H](NC(=O)[C@H](CC(C)C)NC(=O)[C@H](CC(C)C)NC(=O)[C@@H](NC(=O)[C@H](CCCCN)NC(=O)[C@@H](NC(=O)[C@H](CCCNC(=N)N)NC(=O)[C@H](CCCCN)NC(=O)[C@H](CC(C)C)NC(=O)[C@H](CC(C)C)NC(=O)CN)[C@@H](C)CC)[C@@H](C)O)C(=O)NCCCC[C@H](NC(=O)[C@H](CCCCNC(=O)[C@H](CC(C)C)NC(=O)[C@H](CC(C)C)NC(=O)[C@@H](NC(=O)[C@H](CCCCN)NC(=O)[C@@H](NC(=O)[C@H](CCCNC(=N)N)NC(=O)[C@H](CCCCN)NC(=O)[C@H](CC(C)C)NC(=O)[C@H](CC(C)C)NC(=O)CN)[C@@H](C)CC)[C@@H](C)O)NC(=O)[C@H](CC(C)C)NC(=O)[C@H](CC(C)C)NC(=O)[C@@H](NC(=O)[C@H](CCCCN)NC(=O)[C@@H](NC(=O)[C@H](CCCNC(=N)N)NC(=O)[C@H](CCCCN)NC(=O)[C@H](CC(C)C)NC(=O)[C@H](CC(C)C)NC(=O)CN)[C@@H](C)CC)[C@@H](C)O)C(N)=O)[C@@H](C)O,"1 h, 37 °C, 10% haemolysis",,minimum haemolytic concentration,1.31 µM
CC(C)C[C@H](NC(=O)[C@H](C)NC(=O)CNC(=O)[C@@H](NC(=O)[C@@H](NC(=O)[C@H](CCCCN)NC(=O)[C@H](CCCCN)NC(=O)[C@H](CC(C)C)NC(=O)[C@H](CC(C)C)NC(=O)[C@H](CCCCN)NC(=O)[C@H](CC(C)C)NC(=O)[C@H](CC(C)C)NC(=O)[C@@H](N)CCCCN)C(C)C)C(C)C)C(=O)NCC(N)=O,≤5% haemolysis,,minimal haemolytic concentration,125 µM
CC[C@@H](CC(=O)N[C@@H](CCCNC(=N)N)CC(=O)N[C@H]1CCCC[C@@H]1C(=O)N[C@@H](CC)CC(=O)N[C@@H](CCCNC(=N)N)CC(=O)N[C@H]1CCCC[C@@H]1C(=O)N[C@@H](CC)CC(=O)N[C@@H](CCCNC(=N)N)CC(N)=O)NC(=O)[C@H]1CCCC[C@@H]1NC(=O)C[C@@H](N)Cc1ccc(O)cc1,"antifungal MIC, 1 h, 37 °C",baseline: melittin,haemolysis,7.5 ± 5.2%

# Some of these lines once more:
SMILES,conditions,scale,measurement,value
CC(C)C[C@H](NC(=O)[C@H](CCN)NC(=O)[C@H](CCN)NC(=O)[C@H](CC(C)C)NC(=O)[C@H](Cc1c[nH]c2ccccc12)NC(=O)[C@H](CCN)NC(=O)[C@@H](N)CC(C)C)C(N)=O,"up to 100 µM, 4 h, 37 °C",baseline: Triton X-100,hemolysis,< 10%
